Measurements pooled from the literature.
Protocols differ between the studies behind these lines. Numbers after ± are the reported error.
B1: GAB1 331-530 (Homo sapiens, UniProt Q13480); sequence looked up; chain TSKLDTIPDIPPPRPPKPHPAHDRSPVETCSIPRTASDTDSSYCIPTAGMSPSRSNTISTVDLNKLRKDASSQDCYDIPRAFPSDRSSSLEGFHNHFKVKNVLTVGSVSSEELDENYVPMNPNSPPRQHSSSFTEPIQEANYVPMTPGTFDFSSFGMQVPPPAHMGFRSSPKTPPRRPVPVADCEPPPVDRNLKPDRKVK
B2: YDJ1 residues 1-109 (Saccharomyces cerevisiae, UniProt P25491); chain GEFGSMVKETKFYDILGVPVTATDVEIKKAYRKCALKYHPDKNPSEEAAEKFKEASAAYEILSDPEKRDIYDQFGEDGLSGAGGAGGFPGGGFGFGDDIFSQFFGAGGAQRPRG
B3: lat-1 32-136 (Caenorhabditis elegans, UniProt G5EDW2); chain TTDESGTISHTICDGEAAELSCPAGKVISIVLGNYGRFSVAVCLPDNDIVPSNINCQNHKTKSILEKKCNGDSMCYFTVDKKTFTEDPCPNTPKYLEVKYNCVVP
B4: MDM4 23-111, p53-binding domain (Homo sapiens, UniProt O15151); chain GPLGSQINQVRPKLPLLKILHAAGAQGEMFTVKEVMHYLGQYIMVKQLYDQQEQHMVYCGGDLLGELLGRQSFSVKDPSPLYDMLRKNLVTLAT
B5: PI4KB E667K (Homo sapiens, UniProt Q9UBF8-2); sequence looked up; chain MGDTVVEPAPLKPTSEPTSGPPGNNGGSLLSVITEGVGELSVIDPEVAQKACQEVLEKVKLLHGGVAVSSRGTPLELVNGDGVDSEIRCLDDPPAQIREEEDEMGAAVASGTAKGARRRRQNNSAKQSWLLRLFESKLFDISMAISYLYNSKEPGVQAYIGNRLFCFRNEDVDFYLPQLLNMYIHMDEDVGDAIKPYIVHRCRQSINFSLQCALLLGAYSSDMHISTQRHSRGTKLRKLILSDELKPAHRKRELPSLSPAPDTGLSPSKRTHQRSKSDATASISLSSNLKRTASNPKVENEDEPVRLAPEREFIKSLMAIGKRLATLPTKEQKTQRLISELSLLNHKLPARVWLPTAGFDHHVVRVPHTQAVVLNSKDKAPYLIYVEVLECENFDTTSVPARIPENRIRSTRSVENLPECGITHEQRAGSFSTVPNYDNDDEAWSVDDIGELQVELPEVHTNSCDNISQFSVDSITSQESKEPVFIAAGDIRRRLSEQLAHTPTAFKRDPEDPSAVALKEPWQEKVRRIREGSPYGHLPNWRLLSVIVKCGDDLRQELLAFQVLKQLQSIWEQERVPLWIKPYKILVISADSGMIEPVVNAVSIHQVKKQSQLSLLDYFLQEHGSYTTEAFLSAQRNFVQSCAGYCLVCYLLQVKDRHNGNILLDAKGHIIHIDFGFILSSSPRNLGFETSAFKLTTEFVDVMGGLDGDMFNYYKMLMLQGLIAARKHMDKVVQIVEIMQQGSQLPCFHGSSTIRNLKERFHMSMTEEQLQLLVEQMVDGSMRSITTKLYDGFQYLTNGIM
B6: CRYAA R21Q/G98R (Homo sapiens, UniProt P02489); sequence looked up; chain MDVTIQHPWFKRTLGPFYPSQLFDQFFGEGLFEYDLLPFLSSTISPYYRQSLFRTVLDSGISEVRSDRDKFVIFLDVKHFSPEDLTVKVQDDFVEIHRKHNERQDDHGYISREFHRRYRLPSNVDQSALSCSLSADGMLTFCGPKIQTGLDATHAERAIPVSREEKPTSAPSS
B7: DLL4 27-400 G28S/F107L/I143F/H194Y/L206P/N257P/T271L/F280Y/S301R/Q305P (Homo sapiens, UniProt Q9NR61); sequence looked up; chain SSVFQLQLQEFINERGVLASGRPCEPGCRTFFRVCLKHFQAVVSPGPCTFGTVSTPVLGTNSFAVRDDSSGGGRNPLQLPLNFTWPGTFSLIIEAWHAPGDDLRPEALPPDALISKFAIQGSLAVGQNWLLDEQTSTLTRLRYSYRVICSDNYYGDNCSRLCKKRNDYFGHYVCQPDGNPSCLPGWTGEYCQQPICLSGCHEQNGYCSKPAECLCRPGWQGRLCNECIPHPGCRHGTCSTPWQCLCDEGWGGLYCDQDLNYCTHHSPCKNGATCRNSGPRSYTCTCRPGYTGVDCELELSECDSNPCRNGGSCKDQEDGYHCLCPPGYYGLHCEHSTLSCADSPCFNGGSCRERNQGANYACECPPNFTGSNCE
B8: EFR3A 721-791 (Homo sapiens, UniProt Q14156); chain SNTEEITFEALKKAIDTSGMEEQEKEKRRLVIEKFQKAPFEEIAAQCESKANLLHDRLAQILELTIRPPPS
Chain of UniProt P38132 (whole entry, looked up): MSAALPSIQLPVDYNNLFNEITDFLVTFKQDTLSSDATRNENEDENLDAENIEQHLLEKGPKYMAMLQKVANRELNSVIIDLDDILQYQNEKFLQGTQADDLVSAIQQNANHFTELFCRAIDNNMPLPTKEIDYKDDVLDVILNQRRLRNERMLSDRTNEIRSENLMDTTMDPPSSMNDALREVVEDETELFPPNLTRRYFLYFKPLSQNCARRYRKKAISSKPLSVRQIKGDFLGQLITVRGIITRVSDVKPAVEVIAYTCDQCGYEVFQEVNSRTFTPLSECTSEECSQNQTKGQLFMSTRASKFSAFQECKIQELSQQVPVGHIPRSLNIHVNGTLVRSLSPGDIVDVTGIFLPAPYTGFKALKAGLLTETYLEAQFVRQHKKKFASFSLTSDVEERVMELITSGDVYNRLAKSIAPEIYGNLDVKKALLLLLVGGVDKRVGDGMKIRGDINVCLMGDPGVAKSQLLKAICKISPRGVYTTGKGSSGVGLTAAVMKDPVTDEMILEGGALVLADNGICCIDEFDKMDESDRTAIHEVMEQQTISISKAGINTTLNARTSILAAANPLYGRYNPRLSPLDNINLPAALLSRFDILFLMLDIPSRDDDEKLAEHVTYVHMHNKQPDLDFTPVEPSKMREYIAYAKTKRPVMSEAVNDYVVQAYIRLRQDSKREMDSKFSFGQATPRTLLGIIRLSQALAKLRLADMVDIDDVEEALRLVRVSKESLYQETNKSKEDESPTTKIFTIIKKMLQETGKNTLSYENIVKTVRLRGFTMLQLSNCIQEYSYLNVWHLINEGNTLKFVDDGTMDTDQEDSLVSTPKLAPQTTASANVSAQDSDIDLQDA
Chain of UniProt Q9NQB0 (whole entry, looked up): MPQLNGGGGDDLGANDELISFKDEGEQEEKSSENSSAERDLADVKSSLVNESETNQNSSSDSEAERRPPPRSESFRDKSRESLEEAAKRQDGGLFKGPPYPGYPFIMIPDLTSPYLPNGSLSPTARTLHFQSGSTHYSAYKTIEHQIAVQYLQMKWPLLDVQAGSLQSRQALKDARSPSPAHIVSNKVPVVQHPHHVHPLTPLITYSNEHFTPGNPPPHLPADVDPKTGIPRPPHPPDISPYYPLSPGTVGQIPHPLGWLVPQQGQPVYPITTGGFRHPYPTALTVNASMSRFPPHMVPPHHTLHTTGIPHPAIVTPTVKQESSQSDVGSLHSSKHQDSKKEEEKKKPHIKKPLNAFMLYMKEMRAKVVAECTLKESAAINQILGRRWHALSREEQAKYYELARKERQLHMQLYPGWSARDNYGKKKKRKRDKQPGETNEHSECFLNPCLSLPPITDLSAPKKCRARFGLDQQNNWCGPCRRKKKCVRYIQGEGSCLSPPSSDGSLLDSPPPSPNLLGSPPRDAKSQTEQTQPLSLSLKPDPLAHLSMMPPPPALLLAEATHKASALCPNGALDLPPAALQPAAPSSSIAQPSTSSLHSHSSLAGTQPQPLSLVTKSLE
Chain of UniProt Q99466 (whole entry, looked up): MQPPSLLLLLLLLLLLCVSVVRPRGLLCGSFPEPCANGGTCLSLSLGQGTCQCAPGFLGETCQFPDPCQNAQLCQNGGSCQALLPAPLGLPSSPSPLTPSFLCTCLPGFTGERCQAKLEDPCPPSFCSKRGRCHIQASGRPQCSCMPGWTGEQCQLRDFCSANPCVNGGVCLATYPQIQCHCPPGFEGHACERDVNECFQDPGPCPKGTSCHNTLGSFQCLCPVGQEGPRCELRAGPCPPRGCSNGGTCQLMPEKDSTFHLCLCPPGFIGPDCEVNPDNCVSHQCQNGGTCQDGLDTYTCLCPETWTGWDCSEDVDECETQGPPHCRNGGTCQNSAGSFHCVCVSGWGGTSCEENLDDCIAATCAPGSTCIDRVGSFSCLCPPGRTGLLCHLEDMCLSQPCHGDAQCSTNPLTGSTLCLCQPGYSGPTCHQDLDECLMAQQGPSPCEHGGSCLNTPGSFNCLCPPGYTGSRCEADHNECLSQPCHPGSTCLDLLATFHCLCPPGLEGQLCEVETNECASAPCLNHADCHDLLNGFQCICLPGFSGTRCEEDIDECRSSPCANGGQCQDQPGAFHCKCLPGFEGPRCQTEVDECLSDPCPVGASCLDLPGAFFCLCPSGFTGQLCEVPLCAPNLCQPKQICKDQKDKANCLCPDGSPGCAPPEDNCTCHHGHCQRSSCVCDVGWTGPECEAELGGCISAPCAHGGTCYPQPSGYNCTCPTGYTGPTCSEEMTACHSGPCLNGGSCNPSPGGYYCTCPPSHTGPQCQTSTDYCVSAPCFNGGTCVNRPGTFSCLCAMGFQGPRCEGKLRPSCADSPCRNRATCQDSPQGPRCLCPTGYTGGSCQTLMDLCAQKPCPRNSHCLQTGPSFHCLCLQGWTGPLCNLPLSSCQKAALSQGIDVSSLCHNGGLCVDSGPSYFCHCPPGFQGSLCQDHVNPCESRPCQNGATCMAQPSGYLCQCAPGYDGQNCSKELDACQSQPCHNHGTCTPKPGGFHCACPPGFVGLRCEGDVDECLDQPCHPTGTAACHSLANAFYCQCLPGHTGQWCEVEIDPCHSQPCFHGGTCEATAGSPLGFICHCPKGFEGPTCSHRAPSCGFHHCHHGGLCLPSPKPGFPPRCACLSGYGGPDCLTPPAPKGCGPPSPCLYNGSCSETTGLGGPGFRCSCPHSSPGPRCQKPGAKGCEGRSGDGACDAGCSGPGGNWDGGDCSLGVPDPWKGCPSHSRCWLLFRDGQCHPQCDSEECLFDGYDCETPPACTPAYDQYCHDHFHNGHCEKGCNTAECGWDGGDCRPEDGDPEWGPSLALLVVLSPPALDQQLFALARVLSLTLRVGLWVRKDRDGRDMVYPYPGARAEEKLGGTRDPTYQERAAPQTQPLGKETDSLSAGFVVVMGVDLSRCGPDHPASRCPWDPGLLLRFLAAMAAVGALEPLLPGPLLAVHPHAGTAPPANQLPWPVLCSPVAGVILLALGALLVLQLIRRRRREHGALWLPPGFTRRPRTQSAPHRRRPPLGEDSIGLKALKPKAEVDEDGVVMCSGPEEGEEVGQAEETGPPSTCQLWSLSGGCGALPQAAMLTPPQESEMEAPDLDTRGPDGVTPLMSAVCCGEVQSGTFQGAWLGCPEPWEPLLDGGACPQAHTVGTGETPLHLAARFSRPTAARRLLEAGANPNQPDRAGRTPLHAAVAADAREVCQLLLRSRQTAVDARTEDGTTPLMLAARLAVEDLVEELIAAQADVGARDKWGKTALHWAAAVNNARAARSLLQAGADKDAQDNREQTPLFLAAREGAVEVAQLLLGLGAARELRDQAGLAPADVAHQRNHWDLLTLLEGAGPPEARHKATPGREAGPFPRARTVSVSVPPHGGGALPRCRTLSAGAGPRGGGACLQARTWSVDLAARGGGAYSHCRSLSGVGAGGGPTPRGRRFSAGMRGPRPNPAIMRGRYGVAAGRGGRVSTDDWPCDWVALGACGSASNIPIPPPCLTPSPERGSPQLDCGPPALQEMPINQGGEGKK
Chain of UniProt P38646 (whole entry, unmodified, looked up): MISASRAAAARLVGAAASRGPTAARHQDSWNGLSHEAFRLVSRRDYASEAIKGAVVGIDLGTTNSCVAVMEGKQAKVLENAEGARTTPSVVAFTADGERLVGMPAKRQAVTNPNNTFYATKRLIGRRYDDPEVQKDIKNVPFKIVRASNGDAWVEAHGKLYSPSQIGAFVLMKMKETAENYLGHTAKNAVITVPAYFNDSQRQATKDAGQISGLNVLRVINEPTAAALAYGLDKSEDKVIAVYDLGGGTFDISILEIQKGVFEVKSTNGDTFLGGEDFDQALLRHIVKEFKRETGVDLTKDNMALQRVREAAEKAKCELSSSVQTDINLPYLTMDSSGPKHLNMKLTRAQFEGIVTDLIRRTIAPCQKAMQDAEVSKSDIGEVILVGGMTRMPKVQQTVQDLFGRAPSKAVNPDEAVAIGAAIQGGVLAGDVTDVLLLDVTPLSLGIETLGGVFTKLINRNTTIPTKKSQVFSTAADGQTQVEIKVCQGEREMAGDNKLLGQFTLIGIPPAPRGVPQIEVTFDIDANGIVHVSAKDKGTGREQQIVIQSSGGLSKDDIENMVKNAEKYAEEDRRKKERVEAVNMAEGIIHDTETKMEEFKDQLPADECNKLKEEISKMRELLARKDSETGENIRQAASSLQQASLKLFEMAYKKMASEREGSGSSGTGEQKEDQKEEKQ
Chain of UniProt Q00839 (whole entry, looked up): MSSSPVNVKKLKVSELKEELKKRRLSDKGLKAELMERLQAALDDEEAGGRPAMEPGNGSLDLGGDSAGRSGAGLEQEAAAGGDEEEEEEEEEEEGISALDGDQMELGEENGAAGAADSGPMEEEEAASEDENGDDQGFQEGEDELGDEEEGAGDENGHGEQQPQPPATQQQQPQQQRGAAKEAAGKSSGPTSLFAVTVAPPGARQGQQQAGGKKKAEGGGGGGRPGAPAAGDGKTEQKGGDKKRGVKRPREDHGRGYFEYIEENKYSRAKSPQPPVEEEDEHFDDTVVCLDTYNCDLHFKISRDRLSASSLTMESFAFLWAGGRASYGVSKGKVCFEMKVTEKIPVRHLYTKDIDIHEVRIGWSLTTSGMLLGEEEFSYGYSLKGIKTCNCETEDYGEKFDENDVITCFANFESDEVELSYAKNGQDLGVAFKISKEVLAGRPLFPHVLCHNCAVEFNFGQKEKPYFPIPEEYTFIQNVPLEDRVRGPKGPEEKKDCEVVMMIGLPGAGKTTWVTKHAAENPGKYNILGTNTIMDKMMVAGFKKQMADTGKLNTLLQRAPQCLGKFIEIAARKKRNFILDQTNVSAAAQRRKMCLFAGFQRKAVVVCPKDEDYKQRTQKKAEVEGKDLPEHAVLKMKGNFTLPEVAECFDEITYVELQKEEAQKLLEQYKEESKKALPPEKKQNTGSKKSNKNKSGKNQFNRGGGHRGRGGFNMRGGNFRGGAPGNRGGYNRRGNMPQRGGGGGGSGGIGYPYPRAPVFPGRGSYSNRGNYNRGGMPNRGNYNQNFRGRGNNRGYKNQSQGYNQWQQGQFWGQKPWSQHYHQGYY

Molecule | tested on | test | system | setting | scale | endpoint | result
ANDELISF (TCF7L2 14-21 (UniProt Q9NQB0); N-terminal acetyl; sequence looked up) | CTNNB1 135-668 (Homo sapiens, UniProt P35222) | fluorescence polarisation | peptide | – | – | Ki | 57.4 ± 18 µM
FGB (Homo sapiens, UniProt P02675) | KIF9 (Homo sapiens, UniProt Q9HAQ2) | cross-linking MS | – | added: DSSO | – | cross-linked residues | K157 to K667
HNRNPU (Homo sapiens, UniProt Q00839) | GOLGB1 (Homo sapiens, UniProt Q14789) | cross-linking MS | cells | added: iqPIR | – | cross-linked residues | K592 to K2433
B1 (GAB1 331-530) | GRB2 (Homo sapiens, UniProt P62993) | ITC | – | – | – | binding enthalpy | -34.3 kcal/mol
GSGAGKETEC | human SCRIB PDZ3-4 tandem (MBP fusion) | automated holdup | peptide, crude extract | concentration not given, uncorrected, unit not given | reference: biotin control resin, higher = stronger binding | binding intensity | 0.758
MCM3 (Saccharomyces cerevisiae, UniProt P24279) | MCM7 (Saccharomyces cerevisiae, UniProt P38132) | cross-linking MS | – | hits only | – | interaction screen | cross-linked
ptsH fragment (Escherichia coli) (sequence not shown) | ptsI fragment (Escherichia coli) | NMR relaxation dispersion | – | – | – | koff | 8900 s⁻¹
Ro60 (Bos taurus) | RO60 331-345 | SPR | – | – | – | response units | > 200 RU
NGVTKTILEPRARVAKDYGK (gld-3 860-879 E874A (Caenorhabditis elegans, UniProt Q95ZK7); sequence looked up) | fbf-2 164-575 (Caenorhabditis elegans, UniProt Q09312) | fluorescence polarisation | peptide | – | reference: wild-type GLD-3, higher = weaker competition | competition IC50 | 2 fold
ALB (Homo sapiens, UniProt P02768) | BRCA2 (Homo sapiens, UniProt P51587) | cross-linking MS | – | added: DSSO | – | cross-linked residues | K219 to K604
B2 (YDJ1 residues 1-109) | SSA1 T201A (Saccharomyces cerevisiae, UniProt P10591) | NMR titration | – | added: ATP | – | binding | binds
TARS1 (Homo sapiens, UniProt P26639) | Hemoglobin subunit alpha (Homo sapiens, UniProt P69905) | cross-linking MS | – | added: DSSO or DMTMM | – | cross-linked residues | D421 to K41
SERPINA1 (Homo sapiens, UniProt P01009) | DRC11 (Homo sapiens, UniProt Q86XH1) | cross-linking MS | – | added: DSSO | – | cross-linked residues | K359 to K645
B3 (lat-1 32-136) | tol-1 extracellular region (Caenorhabditis elegans) | SPR | – | – | – | kon | 1.55e+06 M⁻¹ s⁻¹
B4 | MDM4 170-260 W239S/F240S (Homo sapiens, UniProt O15151) | NMR titration | – | – | – | binding | binds
KLVVVGAGDV | HLA class I histocompatibility antigen, A alpha chain, allele A*33:03 (Homo sapiens, UniProt P04439) | MHC class I stabilisation, flow cytometry | peptide, TAP2-knockout TISI monoallelic cells | 25 µM, 18 h, 37 °C, added: β2-microglobulin 3 µg/mL | reference: DMSO | HLA class I surface increase | -2.7%
CALLLSAPRR (GOT2 (Gallus gallus); fluorescein label) | HSPA9 47-584 (Homo sapiens, UniProt P38646) | FP | peptide | – | – | koff | 0.00433 s⁻¹
B5 (PI4KB E667K) | RAB11A (Homo sapiens, UniProt P62491) | co-IP | HEK-293T | – | reference: wild type, higher = more binding | relative binding | 2.7 fold
DYNLRB1/DYNLL1/DYNLT1/DYNC1LI2/DYNC1I2/DYNC1H1 dynein-1 complex (Homo sapiens) | NINL/HOOK3 chimera NINL CC, Hook3 LIC-BD, HaloTag | pull-down | – | – | – | Ka | > 1.6e+06 M⁻¹
B6 (CRYAA R21Q/G98R) | ADH1 (Saccharomyces cerevisiae, UniProt P00330) | EDTA-induced ADH aggregation, absorbance, inhibitor | – | 250 µg | – | ADH aggregation suppression IC50 | 26 µg
FGG (Homo sapiens, UniProt P02679) | DRC7 (Homo sapiens, UniProt Q8IY82) | cross-linking MS | – | added: DSSO | – | cross-linked residues | K146 to K804
B7 | NOTCH4 276-511 (Homo sapiens, UniProt Q99466) | SPR | – | – | reference: WT DLL4, higher = tighter binding | affinity enhancement | 532 fold
colistin | Klebsiella pneumoniae | broth microdilution | clinical isolate RKI-No_908/15 | – | – | MIC | 32 mg/L
PALLD Ig3-Ig4 tandem x, scrambled linker | ACTA1 F-actin (Oryctolagus cuniculus, UniProt P68135) | low-speed co-sedimentation | – | 5 µM | – | bundled F-actin fraction | 15.5%
Peginesatide | UT7/EPO | RT-qPCR, item: EGR3 | – | concentration not given, 90 min, normalized to HPRT1 | reference: vehicle | mRNA level | 20 fold
QSARYRDTEL | human SCRIB PDZ3-4 tandem (MBP fusion) | surface plasmon resonance | peptide | concentration not given | higher = stronger binding | normalised SPR binding response | 121 normalised RU
FGA (Homo sapiens, UniProt P02671) | ERBB3 (Homo sapiens, UniProt P21860) | cross-linking MS | – | added: DSSO | – | cross-linked residues | K440 to K705
B8 (EFR3A 721-791) | TTC7B/FAM126A 1-308 | BLI | – | – | – | koff | 1.68e-05 s⁻¹

A few entries again:
Molecule | tested on | test | system | setting | scale | endpoint | result
MCM3 (Saccharomyces cerevisiae, UniProt P24279) | MCM7 (Saccharomyces cerevisiae, UniProt P38132) | cross-linking MS | – | hits only | – | interaction screen | cross-linked
ptsH fragment (Escherichia coli) (sequence not shown) | ptsI fragment (Escherichia coli) | NMR relaxation dispersion | – | – | – | koff | 8900 s⁻¹
Ro60 (Bos taurus) | RO60 331-345 | SPR | – | – | – | response units | > 200 RU
